Results of several laboratories.
Compare with care: the assays were run in different laboratories. “And” joins repeats or separate records; there may be more than shown.
T1: itself; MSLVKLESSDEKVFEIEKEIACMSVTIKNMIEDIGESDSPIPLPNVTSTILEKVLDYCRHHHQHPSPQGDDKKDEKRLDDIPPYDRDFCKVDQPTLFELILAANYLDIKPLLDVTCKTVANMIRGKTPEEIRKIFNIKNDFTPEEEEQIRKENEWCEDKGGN
B1: Skp1 (Dictyostelium discoideum, UniProt P52285); pentasaccharide on hydroxyproline 143; chain MSLVKLESSDEKVFEIEKEIACMSVTIKNMIEDIGESDSPIPLPNVTSTILEKVLDYCRHHHQHPSPQGDDKKDEKRLDDIPPYDRDFCKVDQPTLFELILAANYLDIKPLLDVTCKTVANMIRGKTPEEIRKIFNIKNDFTPEEEEQIRKENEWCEDKGGN
UniProt P0AE98, sequence (whole entry, looked up): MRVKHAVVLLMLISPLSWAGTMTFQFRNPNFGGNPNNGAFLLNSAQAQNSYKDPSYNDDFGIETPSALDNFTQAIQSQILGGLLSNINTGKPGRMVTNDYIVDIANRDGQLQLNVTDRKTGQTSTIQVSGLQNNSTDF

Molecule | partner | assay | system | setting | subunits per oligomer
ZIKV E ectodomain , dimer L107C/A264C/A319C, disulfide-stabilized (Zika virus) | itself | SEC, non-reducing SDS-PAGE |  |  | 2
ITPR1 C2536A (Homo sapiens) | itself | sucrose density gradient fractionation | lysate |  | 2
fiber knob knob domain (adenovirus serotype 5) | itself | native gel |  |  | 3
B1 (Skp1) | T1, itself | SAXS |  | Mr from scattering | 2
ITPR1 C2505A/C2513A/C2536A/C2542A (Homo sapiens) | itself | sucrose density gradient fractionation | lysate |  | 2
encapsulin shell protein empty shell (Streptomyces griseus) | itself | cryo-EM |  |  | 60 protomers
nsaS fragment (Staphylococcus aureus) | itself | AUC |  |  | 2
HBV core protein Cp149 assembly domain, dimer (hepatitis B virus) | itself | native MS |  | pH 7.5 | 120 dimers
LL-37 mature (Homo sapiens) | itself | native MS |  |  | 3 and 4
csgF mature (Escherichia coli, UniProt P0AE98) | itself | cryo-EM |  |  | 9
integrase fragment C23S/L112M/L135M/L162M/L163M/L188M/L189M, selenomethionine-labeled (Rous sarcoma virus) | itself | X-ray crystallography |  |  | 8
htrA mature (Borrelia burgdorferi) | itself | SEC |  | 20 °C | 3
gp7 virion capsid | itself | cryo-EM |  |  | 6
dnaB N-terminal deletion (Helicobacter pylori) | itself | SEC |  |  | 6
HBV core protein Cp149 dimer (hepatitis B virus) | itself | resistive-pulse sensing |  |  | 108 dimers and 111 dimers
Epo-Fc Fc fusion, hinge-CH2-CH3, glycosylated (Mus musculus) | itself | SDS-PAGE Western blot |  |  | 2
